Measured values pooled from the literature.
± gives the spread as reported.

SMILES = CO/C1=C\C(C)=C\[C@@H](C)[C@@H](O)[C@@H](C)C/C(C)=C/C=C/[C@H](OC)[C@@H]([C@@H](C)[C@@H](O)[C@H](C)[C@@]2(O)C[C@@H](O)[C@H](C)[C@@H](C(C)C)O2)OC1=O; cell line = HEK293; test = endosomal acidification; IC50 = 0.0405 ± 0.00331 µM
SMILES = CN1CCN(S(=O)(=O)c2cc([N+](=O)[O-])ccc2N(CCOS(C)(=O)=O)CCOS(C)(=O)=O)CC1; cell line = sample H B-ALL PDX cells; test = cytotoxicity; conditions = 48 h, BCP-ALL, ex vivo; IC50 = 0.859 µM
SMILES = O=C(O)C(Cl)Cl; cell line = 2008 ovarian adenocarcinoma, cisplatin-sensitive; test = MTT; conditions = 72 h; IC50 = > 50 µM
SMILES = CC[C@H](C)[C@H](NC(=O)CN)C(=O)NCC(=O)N[C@@H](C)C(=O)N[C@H](C(=O)N[C@@H](CC(C)C)C(=O)N[C@@H](CCCCN)C(=O)N[C@H](C(=O)N[C@@H](CC(C)C)C(=O)N[C@H](C(=O)N[C@H](C(=O)NCC(=O)N[C@@H](CC(C)C)C(=O)N1CCC[C@H]1C(=O)N[C@@H](C)C(=O)N[C@@H](CC(C)C)C(=O)N[C@H](C(=O)N[C@@H](CO)C(=O)N[C@@H](Cc1c[nH]c2ccccc12)C(=O)N[C@H](C(=O)N[C@@H](CCCCN)C(=O)N[C@@H](CCCNC(=N)N)C(=O)N[C@@H](CCCCN)C(=O)N[C@@H](CCCNC(=N)N)C(=O)N[C@@H](CCC(N)=O)C(=O)N[C@@H](CCC(N)=O)C(N)=O)[C@@H](C)CC)[C@@H](C)CC)[C@@H](C)O)[C@@H](C)O)C(C)C)C(C)C; cell line = HCE-T; test = cytotoxicity, MTT; conditions = 24 h; IC50 = 7.87 µM
SMILES = N.N.[Cl][Pt][Cl]; cell line = A549/DDP cisplatin-resistant; test = MTT; conditions = 48 h, with: survivin siRNA 10 nM transfected 24 h before; IC50 = 34.1 ± 6.52 µM
SMILES = N=C(N)Nc1ccc(NC(=O)c2cc(C(F)(F)F)cc(C(F)(F)F)c2)cc1OCc1ccc(C(F)(F)F)cc1; cell line = mouse RAW264.7 macrophages; test = cell viability; conditions = 48 h; IC50 = > 500 µM
SMILES = CC(C)[C@H](NC(=O)[C@H](Cc1c[nH]c2ccccc12)NC(=O)[C@H](Cc1c[nH]cn1)NC(=O)[C@H](CCCNC(=N)N)NC(=O)[C@H](CCCNC(=N)N)NC(=O)[C@H](Cc1c[nH]c2ccccc12)NC(=O)[C@H](Cc1c[nH]c2ccccc12)NC(=O)[C@H](Cc1c[nH]cn1)NC(=O)[C@H](Cc1c[nH]c2ccccc12)NC(=O)[C@H](CCCNC(=N)N)NC(=O)[C@@H](N)CCCCN)C(=O)N[C@H](C(=O)N[C@@H](Cc1c[nH]c2ccccc12)C(N)=O)C(C)C; cell line = NL20; IC50 = 76 µM
SMILES = C#CCOc1c2c(c(-c3ccc4c(c3)OCO4)c3cc(OC)c(OC)cc13)C(=O)OC2; cell line = HEK293; test = endosomal acidification; conditions = 4 h; IC50 = 0.263 ± 0.0466 µM
SMILES = N.N.[Cl][Pt][Cl]; cell line = A3/KAW; test = cell proliferation, CellTiter-Glo; conditions = 72 h; IC50 = 0.59 µM
SMILES = COc1cc2c(O)c3c(c(-c4ccc5c(c4)OCO5)c2cc1OC)C(=O)N(/N=C/c1cccnc1)C3; cell line = HEK293; test = endosomal acidification; IC50 = 8.71 ± 0.769 µM
SMILES = COc1cc([C@@H]2c3cc4c(cc3C[C@H]3COC(=O)[C@@H]32)OCO4)cc(OC)c1OC; cell line = cells without MycN induction (no doxycycline); test = cell growth, sulforhodamine B; IC50 = 1.7 ng/mL
SMILES = Cc1cccc(N(C)C(=O)[C@@H]2[C@H](O)CCN2c2nc(C)cc(C(F)(F)F)c2C#N)c1; cell line = DLD-1 BRCA2-knockout; test = colony survival; IC50 = ~2.5 µM
SMILES = C#CCCCOc1c2c(c(-c3ccc4c(c3)OCO4)c3cc(OC)c(OC)cc13)C(=O)OC2; cell line = HEK293; test = endosomal acidification; IC50 = 0.102 ± 0.019 µM
SMILES = COc1c(C)c2c(c(O)c1C/C=C(\C)CCC(=O)O)C(=O)OC2; cell line = TE-671; test = cell proliferation; system = muscle cancer; IC50 = 0.724 µM
